Experimental data from different studies.
Parts stem from different laboratories: compare values within a part only.
Chain of UniProt Q9BX84 (whole entry, looked up): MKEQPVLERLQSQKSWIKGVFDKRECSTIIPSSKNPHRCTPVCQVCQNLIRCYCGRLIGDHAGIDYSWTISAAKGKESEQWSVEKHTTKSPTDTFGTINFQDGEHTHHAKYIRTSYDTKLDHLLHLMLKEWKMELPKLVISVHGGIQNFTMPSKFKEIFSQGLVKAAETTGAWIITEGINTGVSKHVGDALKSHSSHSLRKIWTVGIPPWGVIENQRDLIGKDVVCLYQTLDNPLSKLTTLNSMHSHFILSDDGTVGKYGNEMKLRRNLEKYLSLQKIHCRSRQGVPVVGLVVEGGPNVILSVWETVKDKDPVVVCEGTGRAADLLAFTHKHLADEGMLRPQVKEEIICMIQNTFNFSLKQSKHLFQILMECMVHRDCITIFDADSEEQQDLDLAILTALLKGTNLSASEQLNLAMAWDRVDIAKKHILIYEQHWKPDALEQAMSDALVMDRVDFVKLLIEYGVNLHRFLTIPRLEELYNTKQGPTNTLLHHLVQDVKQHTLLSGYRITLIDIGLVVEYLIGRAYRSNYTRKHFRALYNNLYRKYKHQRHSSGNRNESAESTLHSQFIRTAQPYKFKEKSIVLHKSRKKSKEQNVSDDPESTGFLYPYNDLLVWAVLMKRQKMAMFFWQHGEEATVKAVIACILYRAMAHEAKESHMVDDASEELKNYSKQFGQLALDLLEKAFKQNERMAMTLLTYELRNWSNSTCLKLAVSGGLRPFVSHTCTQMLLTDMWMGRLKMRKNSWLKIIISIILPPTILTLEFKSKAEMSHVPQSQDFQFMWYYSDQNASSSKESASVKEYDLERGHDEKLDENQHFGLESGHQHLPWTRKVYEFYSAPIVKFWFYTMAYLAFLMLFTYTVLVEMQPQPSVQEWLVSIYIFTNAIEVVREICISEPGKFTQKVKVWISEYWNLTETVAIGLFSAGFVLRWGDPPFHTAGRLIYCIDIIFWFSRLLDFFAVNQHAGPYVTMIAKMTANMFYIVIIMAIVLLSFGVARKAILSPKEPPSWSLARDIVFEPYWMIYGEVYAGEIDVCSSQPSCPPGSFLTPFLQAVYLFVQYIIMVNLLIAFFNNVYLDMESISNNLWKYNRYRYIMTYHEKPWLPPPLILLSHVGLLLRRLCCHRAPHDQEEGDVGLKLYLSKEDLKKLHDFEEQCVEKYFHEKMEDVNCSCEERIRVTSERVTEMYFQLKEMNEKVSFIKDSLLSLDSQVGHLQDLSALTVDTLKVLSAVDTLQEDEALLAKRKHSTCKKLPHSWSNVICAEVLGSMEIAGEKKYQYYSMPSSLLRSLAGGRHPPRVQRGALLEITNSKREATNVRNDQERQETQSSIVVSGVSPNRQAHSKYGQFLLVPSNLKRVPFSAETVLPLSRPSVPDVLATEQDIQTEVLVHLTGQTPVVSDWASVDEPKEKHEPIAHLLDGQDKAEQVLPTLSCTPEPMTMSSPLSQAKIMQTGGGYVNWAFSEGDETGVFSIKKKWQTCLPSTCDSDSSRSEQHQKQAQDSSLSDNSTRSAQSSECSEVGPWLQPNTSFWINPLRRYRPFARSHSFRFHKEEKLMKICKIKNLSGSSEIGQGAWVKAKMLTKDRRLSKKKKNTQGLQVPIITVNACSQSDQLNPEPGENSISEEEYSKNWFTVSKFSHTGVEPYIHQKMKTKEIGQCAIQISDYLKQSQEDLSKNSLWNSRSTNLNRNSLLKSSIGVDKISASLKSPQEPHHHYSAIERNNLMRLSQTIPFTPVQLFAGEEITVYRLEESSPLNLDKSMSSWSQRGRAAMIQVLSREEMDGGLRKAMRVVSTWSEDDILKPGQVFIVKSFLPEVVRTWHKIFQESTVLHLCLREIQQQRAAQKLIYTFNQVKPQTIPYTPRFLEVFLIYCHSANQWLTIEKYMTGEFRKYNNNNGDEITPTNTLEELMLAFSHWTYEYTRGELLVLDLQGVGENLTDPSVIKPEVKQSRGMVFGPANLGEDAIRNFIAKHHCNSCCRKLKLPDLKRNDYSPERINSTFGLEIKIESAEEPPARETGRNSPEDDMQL
Chain of UniProt Q9BYP7 (whole entry, looked up): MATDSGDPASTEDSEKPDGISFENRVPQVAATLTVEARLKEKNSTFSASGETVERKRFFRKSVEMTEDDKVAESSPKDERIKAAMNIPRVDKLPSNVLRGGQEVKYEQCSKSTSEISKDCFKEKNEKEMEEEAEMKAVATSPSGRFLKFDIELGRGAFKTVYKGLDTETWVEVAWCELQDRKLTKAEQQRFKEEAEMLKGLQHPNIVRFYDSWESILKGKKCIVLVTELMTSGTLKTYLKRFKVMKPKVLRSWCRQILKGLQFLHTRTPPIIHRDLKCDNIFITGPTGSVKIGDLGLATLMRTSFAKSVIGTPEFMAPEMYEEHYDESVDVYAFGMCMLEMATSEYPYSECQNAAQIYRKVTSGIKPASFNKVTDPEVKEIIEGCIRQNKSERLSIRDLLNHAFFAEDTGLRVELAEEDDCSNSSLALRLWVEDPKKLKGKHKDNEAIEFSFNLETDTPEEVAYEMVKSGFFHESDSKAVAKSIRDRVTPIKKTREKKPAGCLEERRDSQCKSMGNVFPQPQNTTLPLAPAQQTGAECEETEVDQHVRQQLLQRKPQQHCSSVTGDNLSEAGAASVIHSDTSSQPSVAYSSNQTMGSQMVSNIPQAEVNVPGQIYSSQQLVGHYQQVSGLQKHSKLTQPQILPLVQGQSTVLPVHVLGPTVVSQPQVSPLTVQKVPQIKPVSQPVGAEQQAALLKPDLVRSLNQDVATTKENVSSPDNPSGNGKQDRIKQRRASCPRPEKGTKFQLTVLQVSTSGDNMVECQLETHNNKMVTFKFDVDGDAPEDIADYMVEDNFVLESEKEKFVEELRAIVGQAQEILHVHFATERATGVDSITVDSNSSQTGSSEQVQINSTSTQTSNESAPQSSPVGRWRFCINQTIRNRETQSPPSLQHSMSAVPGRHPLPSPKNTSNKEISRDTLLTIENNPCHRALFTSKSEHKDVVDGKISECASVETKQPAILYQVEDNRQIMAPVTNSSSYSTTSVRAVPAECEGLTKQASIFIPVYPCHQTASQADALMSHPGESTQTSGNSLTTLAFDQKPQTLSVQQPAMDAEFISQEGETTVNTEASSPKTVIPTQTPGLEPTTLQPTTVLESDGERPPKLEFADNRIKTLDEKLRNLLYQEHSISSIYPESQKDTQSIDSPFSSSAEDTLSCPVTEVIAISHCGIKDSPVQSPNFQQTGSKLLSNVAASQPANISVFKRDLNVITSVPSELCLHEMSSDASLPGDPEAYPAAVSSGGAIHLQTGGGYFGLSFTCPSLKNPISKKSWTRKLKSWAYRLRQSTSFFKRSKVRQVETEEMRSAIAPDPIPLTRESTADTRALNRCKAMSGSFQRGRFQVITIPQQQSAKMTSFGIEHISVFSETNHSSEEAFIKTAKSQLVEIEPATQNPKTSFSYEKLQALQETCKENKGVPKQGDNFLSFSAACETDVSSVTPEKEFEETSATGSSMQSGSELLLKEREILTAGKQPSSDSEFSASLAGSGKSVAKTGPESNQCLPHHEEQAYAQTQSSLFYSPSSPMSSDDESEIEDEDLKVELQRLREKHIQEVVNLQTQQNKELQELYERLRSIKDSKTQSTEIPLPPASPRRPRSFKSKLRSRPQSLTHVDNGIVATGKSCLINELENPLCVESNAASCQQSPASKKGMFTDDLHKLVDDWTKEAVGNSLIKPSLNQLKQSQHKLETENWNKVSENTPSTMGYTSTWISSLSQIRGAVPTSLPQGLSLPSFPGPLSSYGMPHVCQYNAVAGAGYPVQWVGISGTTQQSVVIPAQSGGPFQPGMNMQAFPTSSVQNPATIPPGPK
Chain of UniProt O15264 (whole entry, looked up): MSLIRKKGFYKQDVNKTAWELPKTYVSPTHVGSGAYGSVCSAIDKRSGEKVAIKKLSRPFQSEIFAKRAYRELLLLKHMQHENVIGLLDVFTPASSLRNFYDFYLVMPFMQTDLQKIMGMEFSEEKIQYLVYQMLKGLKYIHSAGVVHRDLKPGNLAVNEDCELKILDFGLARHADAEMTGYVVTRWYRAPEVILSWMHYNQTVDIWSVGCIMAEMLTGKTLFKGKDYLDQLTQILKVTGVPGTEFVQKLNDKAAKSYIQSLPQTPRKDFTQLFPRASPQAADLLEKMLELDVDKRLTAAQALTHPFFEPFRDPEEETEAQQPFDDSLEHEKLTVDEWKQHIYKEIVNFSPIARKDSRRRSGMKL
Chain of UniProt P11802 (whole entry, looked up): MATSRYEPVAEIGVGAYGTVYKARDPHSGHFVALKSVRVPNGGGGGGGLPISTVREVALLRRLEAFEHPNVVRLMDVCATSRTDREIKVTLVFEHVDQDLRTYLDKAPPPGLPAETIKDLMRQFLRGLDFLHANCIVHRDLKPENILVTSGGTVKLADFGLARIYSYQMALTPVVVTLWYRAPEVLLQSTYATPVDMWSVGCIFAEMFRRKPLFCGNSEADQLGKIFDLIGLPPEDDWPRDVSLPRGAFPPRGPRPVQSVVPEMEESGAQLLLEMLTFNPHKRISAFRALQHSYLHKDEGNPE

Series 1
Compound: CS(=O)(=O)N1CCCC(NC(=O)[C@H](CCC2CCCCC2)NC(=O)c2ccc(CNc3ncnc4c3nnn4-c3ccccc3)cc2)C1 (some centres unmarked)
Effect on: cell-free assay
Method: competition with immobilised ligand
Tested at: 0.1 µM
The remaining binding was 94% (FLT3 (Homo sapiens, UniProt P36888, R834Q)).
It gave 100% for remaining binding (Ribosomal protein S6 kinase alpha-6, N-terminal kinase domain (RPS6KA6, Homo sapiens, UniProt Q9UK32)).
The remaining binding was 87% (DYRK1A (Homo sapiens, UniProt Q13627)).
The remaining binding was 86% (NTRK3 (Homo sapiens, UniProt Q16288)).
It gave 100% for remaining binding (Ribosomal protein S6 kinase alpha-3, N-terminal kinase domain (RPS6KA3, Homo sapiens, UniProt P51812)).
It gave 100% for remaining binding (WEE2 (Homo sapiens, UniProt P0C1S8)).
It gave 100% for remaining binding (LATS1 (Homo sapiens, UniProt O95835)).
It gave 100% for remaining binding (LIM domain kinase 2 (LIMK2, Homo sapiens, UniProt P53671)).
For HIPK4 (Homo sapiens, UniProt Q8NE63): remaining binding read 100%.
It gave 100% for remaining binding (TSSK3 (Homo sapiens, UniProt Q96PN8)).
MKNK2 (Homo sapiens, UniProt Q9HBH9) — remaining binding: 100%.
TRPM6 (Homo sapiens, UniProt Q9BX84) — remaining binding: 96%.
It gave 100% for remaining binding (CHUK (Homo sapiens, UniProt O15111)).
For CSNK1G2 (Homo sapiens, UniProt P78368): remaining binding read 82%.
MAPK13 (Homo sapiens, UniProt O15264) — remaining binding: 100%.
The remaining binding was 100% (EPHB1 (Homo sapiens, UniProt P54762)).
The remaining binding was 100% (PIM3 (Homo sapiens, UniProt Q86V86)).
The remaining binding was 100% (NEK2 (Homo sapiens, UniProt P51955)).
It gave 85% for remaining binding (WNK3 (Homo sapiens, UniProt Q9BYP7)).
It gave 100% for remaining binding (Cyclin-dependent kinase 4, with cyclin D1 (CDK4, Homo sapiens, UniProt P11802)).
It gave 100% for remaining binding (MTOR (Homo sapiens, UniProt P42345)).

Series 2
Target: RNA binding protein fox-1 homolog 2, RRM domain, GST-SBP tag (RBFOX2, Homo sapiens, UniProt O43251-10, residues 100-194)
Method: RNA Bind-n-Seq
Form: RNA
Sample: in vitro
Tested at: 365 nM
Notes: natural RNA segment, single round, ends assumed
Baseline: no-protein control
Direction: higher = stronger binding
Constant ends, left off below: GGGAGUUCUACAGUCCGACGAUC … UGGAAUUCUCGGGUGCCAA
`CCCAUGAAUGGUGGCUCUCAAGCUUCUGUGCUACACAGGGGUGUGUGGUUGGGCGAGUGUCCUUGUUAAUUGAUACCUAAUUGGCCUUGGUUGGGAACAUAGCCAUGAGU`: “RBNS enrichment (R)” 0.529.
Under “RBNS enrichment (R)”, `AAGAUAGGAUCGGAGAUACCUGUAGUCUUCAGACCUUUAGUGCCUGUAUUUAUCCAUCAUUACUGAAGUAUUUGUUAACUAAGCUAGCAACAAAAUAAUUUCUGUACUUU` is recorded as 0.468.
`UUUCUUGCAUUUAUGGAGUUGCUUUUUCUUUCCCAAGGAAACUGAUGUUUGCCUGUCCGCUUUAUCUUUGUAGUACAUGAACAGUUCAGCCUUAGACUAUGUAACUGUUU` — result for “RBNS enrichment (R)”: 2.6.
`CCAGGGUCAAAGGUGAAGAAAGCAAGCUCACUGCCUGCACACGGAGAUUGUCUUUCUGCCACAGAACAGCUGCAAACGUGUCAGGAGGUUAGCUGAGAAAGAAAUCGGGC` — result for “RBNS enrichment (R)”: 0.959.
`GUGAAGCCCUAGACGAUGGAAUCCUACCAAGCUGAACGUCGGCUUCUAUCCAUAUGCUAUCGAGUAAUUAUAGAAGCAAUUAACACUCACUGUUCUUGCCUCUGGUGAGA` — result for “RBNS enrichment (R)”: 0.446.
For `GUUUCUAGUUCCUGGCUCUUGAGGGGCUUGGUCCUGCCUGCUCUAUGGAAGGGGCCAAGAGGAGCUGCAAGGCAGCCCGGUUAGUGUUCGGGUGAAAUGGCAAGUUGUAC`, “RBNS enrichment (R)” read 0.439.
Under “RBNS enrichment (R)”, `GUAGGUUUUGCAGUUAAUGGCCUGAAUGCUAGAUAUCAGAUCACCUGUUUCGCUGUGGGAACAGGAGAGAAGGUGAUGAACAAACCACCAUCCGCUGCAUGGUCACAGUA` is recorded as 2.23.
Under “RBNS enrichment (R)”, `GAAGGGUCAUAAGCUCAAGGCCAUUUUUAGAAGCUUGUUGGGACACUGUCUCCAAUAGAAAGUGAAAAGAGAAGUGUGUGUAUAGCUCAGUGGUAGAGUGCUUGCCUGAU` is recorded as 0.414.

Series 3
Target: Prothrombin, mature alpha-thrombin (F2, Homo sapiens, UniProt P00734)
Method: aptamer microarray, sandwich
Form: DNA with 2'F-ANA
Sample: in vitro
Tested at: 200 nM
Notes: whole 15-mer aptamer, many near background
Added: Cy3 exosite-II aptamer, 400 nM
Direction: higher = stronger binding
Sequence: GGTTGGTGTGGTTGG
`2'F-ANA at 1 3 6 7 8 9 10 11 12 13 14`: “mean fluorescence intensity” 64.2 a.u.
For `2'F-ANA at 1 2 3 4 5 6 7 8 10 13 15`, “mean fluorescence intensity” read 47.8 a.u.
`2'F-ANA at 2 4 6 7 8 10 15`: “mean fluorescence intensity” 85 a.u.
Under “mean fluorescence intensity”, `2'F-ANA at 2 4 5 6 8 10 11 12 13 14 15` is recorded as 74.7 a.u.
`2'F-ANA at 3 7 8 9 15`: “mean fluorescence intensity” 1140 a.u.
Under “mean fluorescence intensity”, `2'F-ANA at 2 3 4 5 6 7 10 12 14` is recorded as 46.7 a.u.
For `2'F-ANA at 3 5 7 8 11 13 14`, “mean fluorescence intensity” read 61.5 a.u.
Under “mean fluorescence intensity”, `2'F-ANA at 1 2 4 5 6 8 9 10 15` is recorded as 50.1 a.u.

Series 4
Target: Dual specificity protein kinase CLK3 (CLK3, Homo sapiens, UniProt P49761)
Chain of UniProt P49761 (whole entry, looked up): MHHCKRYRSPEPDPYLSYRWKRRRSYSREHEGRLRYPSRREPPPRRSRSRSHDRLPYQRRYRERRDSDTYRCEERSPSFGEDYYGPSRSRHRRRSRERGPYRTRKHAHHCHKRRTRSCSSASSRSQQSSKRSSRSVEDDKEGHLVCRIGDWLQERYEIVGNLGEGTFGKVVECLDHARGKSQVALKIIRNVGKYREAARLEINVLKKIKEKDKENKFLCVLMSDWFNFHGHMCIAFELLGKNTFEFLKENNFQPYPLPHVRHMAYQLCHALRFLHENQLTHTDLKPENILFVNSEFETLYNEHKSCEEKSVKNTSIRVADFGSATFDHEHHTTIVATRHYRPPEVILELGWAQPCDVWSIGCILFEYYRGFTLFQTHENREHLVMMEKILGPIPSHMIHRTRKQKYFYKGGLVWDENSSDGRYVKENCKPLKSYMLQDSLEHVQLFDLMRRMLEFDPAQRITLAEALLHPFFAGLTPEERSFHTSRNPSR
Effect on: enzyme activity
Mode: inhibitor
Tested at: 0.5 µM
Baseline: control
`Cc1ccc(NC(=O)c2ccc(CN3CCN(C)CC3)cc2)cc1Nc1nc(-c2cccnc2)cs1` gave a remaining activity of 93.6%.
For `COc1ccc(C(=O)Nc2sc3c(c2C(N)=O)CCCC3)cc1OC`, the remaining activity was 63%.
`O=C(CCCc1ccc(-c2ccccc2F)cc1)Nc1ccc(O)cc1` has a remaining activity of 124%.
With `Nc1[nH]nc2nc3ccccc3nc12` the remaining activity was 94.3%.
For `O=S(=O)(c1cccc2cnccc12)N1CCCNCC1`, the remaining activity was 83.7%.
For `COc1cc2ncnc(Nc3ccc(F)c(Cl)c3)c2cc1OCCCN1CCOCC1`, the remaining activity was 106%.
The remaining activity of `Cn1c2ccccc2c2c3c(c4c5ccccc5n(CCC#N)c4c21)CNC3=O` is reported as 23.1%.
With `O=c1c2ccccc2[nH]c(=S)n1CCN1CCC(=C(c2ccc(F)cc2)c2ccc(F)cc2)CC1` the remaining activity was 101%.
With `N#CC(C#N)=C(N)/C(C#N)=C/c1ccc(O)cc1` the remaining activity was 100%.
With `O=C1NC(=O)C(c2cn(CCCO)c3ncccc23)=C1c1cnccn1` the remaining activity was 67.8%.
`Oc1ccc(-c2nc(-c3ccncc3)c(-c3ccc(F)cc3)[nH]2)cc1` gave a remaining activity of 101%.
With `OCC(O)CCON=C1C(c2c(O)[nH]c3ccccc23)=Nc2ccccc21` (centres unmarked) the remaining activity was 16.1%.
The remaining activity of `NCCNc1ncc(C(N)=O)c(Nc2cccc(C(F)(F)F)c2)n1` is reported as 107%.

A few entries again (series 2):
`UUUCUUGCAUUUAUGGAGUUGCUUUUUCUUUCCCAAGGAAACUGAUGUUUGCCUGUCCGCUUUAUCUUUGUAGUACAUGAACAGUUCAGCCUUAGACUAUGUAACUGUUU` — result for “RBNS enrichment (R)”: 2.6.
For `GUUUCUAGUUCCUGGCUCUUGAGGGGCUUGGUCCUGCCUGCUCUAUGGAAGGGGCCAAGAGGAGCUGCAAGGCAGCCCGGUUAGUGUUCGGGUGAAAUGGCAAGUUGUAC`, “RBNS enrichment (R)” read 0.439.
`CCCAUGAAUGGUGGCUCUCAAGCUUCUGUGCUACACAGGGGUGUGUGGUUGGGCGAGUGUCCUUGUUAAUUGAUACCUAAUUGGCCUUGGUUGGGAACAUAGCCAUGAGU`: “RBNS enrichment (R)” 0.529.
Under “RBNS enrichment (R)”, `GUAGGUUUUGCAGUUAAUGGCCUGAAUGCUAGAUAUCAGAUCACCUGUUUCGCUGUGGGAACAGGAGAGAAGGUGAUGAACAAACCACCAUCCGCUGCAUGGUCACAGUA` is recorded as 2.23.
Under “RBNS enrichment (R)”, `AAGAUAGGAUCGGAGAUACCUGUAGUCUUCAGACCUUUAGUGCCUGUAUUUAUCCAUCAUUACUGAAGUAUUUGUUAACUAAGCUAGCAACAAAAUAAUUUCUGUACUUU` is recorded as 0.468.
